Measurements of several laboratories.
Parts stem from different laboratories: compare values within a part only. Positions count from the first letter of the parent shown.

Set 1
Target: Prothrombin, mature alpha-thrombin (F2, Homo sapiens, UniProt P00734)
Method: aptamer microarray, sandwich
Form: DNA with 2'F-ANA
Medium: in vitro
Concentration: 200 nM
Notes: whole 15-mer aptamer, many near background
Added: Cy3 exosite-II aptamer, 400 nM
Reading: higher = stronger binding
Oligonucleotide: GGTTGGTGTGGTTGG
Modification	mean fluorescence intensity [a.u.]
2'F-ANA at 2 5 7 10 12 13 14	42.1
2'F-ANA at 2 6 10 12 15	178
2'F-ANA at 2 3 4 5 6 11 13 15	57.7
2'F-ANA at 6 8 10 14 15	96.3
2'F-ANA at 2 3 8 9 10 12 13 14	301
2'F-ANA at 1 2 3 4 5 7 8 9 10 11 13 14	74.4
2'F-ANA at 1 4 8 9 10 11 12 13 14	57.1

Set 2
Target: CCNA1, cyclin fold, Cln2 fusion (human)
Method: yeast growth competition, sequencing
Medium: yeast
Notes: weak parent motif
Relative to: not given
Reading: higher = stronger binding
Parent: PKN2 docking peptide (human); VSAVQKLDFSDTM; partner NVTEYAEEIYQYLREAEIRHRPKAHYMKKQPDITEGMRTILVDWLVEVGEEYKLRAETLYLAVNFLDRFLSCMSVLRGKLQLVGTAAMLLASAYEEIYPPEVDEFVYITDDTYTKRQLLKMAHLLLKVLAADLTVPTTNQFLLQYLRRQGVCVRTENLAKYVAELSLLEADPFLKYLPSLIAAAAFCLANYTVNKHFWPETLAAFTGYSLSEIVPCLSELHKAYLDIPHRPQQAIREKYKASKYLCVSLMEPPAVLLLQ
Change	normalised enrichment score
T12C	0.332
A3Y	0.342
V1E	0.0471
S10E	0.501
V4W	0.0918
M13P	-0.0826

Set 3
Target: RING finger protein unkempt homolog, zinc fingers 1-6, GST-SBP tag (UNK, Homo sapiens, UniProt Q9C0B0, residues 30-357)
UniProt Q9C0B0, sequence (30-357, looked up): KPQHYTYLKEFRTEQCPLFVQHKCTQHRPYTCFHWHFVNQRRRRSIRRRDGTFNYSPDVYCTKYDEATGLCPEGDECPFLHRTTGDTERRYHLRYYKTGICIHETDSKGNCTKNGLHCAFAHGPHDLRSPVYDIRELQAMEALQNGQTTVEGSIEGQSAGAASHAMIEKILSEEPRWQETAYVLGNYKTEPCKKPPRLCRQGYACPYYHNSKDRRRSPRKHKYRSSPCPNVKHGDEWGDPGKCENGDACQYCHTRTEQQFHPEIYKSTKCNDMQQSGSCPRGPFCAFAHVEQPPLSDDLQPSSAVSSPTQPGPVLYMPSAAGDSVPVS
Method: RNA Bind-n-Seq
Form: RNA
Medium: in vitro
Concentration: not given
Notes: RNA with constant flanks, ends assumed
Relative to: input RNA pool
Reading: higher = stronger binding
Oligonucleotide	bound/input enrichment [ratio]
GGGAGUUCUACAGUCCGACGAUCAAAGUUAUCUCUCUUUAGGCACGAAGAGCAAUUCAGAAAAAUAUGACUUUUAUUGAUGAAAACCGAGUUAUGCUUAAAUAUCUCUUCCCUUUGAAUGAAAUUGUGGUAGAUUUUUAUGACCAACAGAGGAUUGAGCAUCA	0.735
GGGAGUUCUACAGUCCGACGAUCCCAACGUUAGAAGCAGCCUGGCCUCAUCUACAGCUUGUUUAUGAAUUUUUCUUAAGAUUUUCCGAGUCUCCAGAUUUCCAACCUAAUAUAGCGAAGAAAUAUAUUGAUCAGAAGUUUGUACAACAGAGGAUUGAGCAUCA	1.46
GGGAGUUCUACAGUCCGACGAUCUUACAAGUAUUUUAAUUUAAGUUCAGUGAACUUUUUUGUAGCUGGGUUAAAUCUUUUUAUUUCCGUAUGGCCUUAUGGCAAAGAACACUGUAUUAUUUUAAUAAUCACACAAUUGUGACGCAACAGAGGAUUGAGCAUCA	0.929

Mixed results
Molecule	target	test	test system	conditions	scale	measurement	result
PhoQ, residues 284 288 289 292 302 303 SQSLSM	PhoP, residues 12 14 15 18 19 LHTVM (Escherichia coli, UniProt P23836)	Sort-seq, measured: YFP reporter	E. coli	PhoQ-PhoP variant library, added: 10 µM Mg2+	relative to: high Mg2+ state, higher = stronger signaling	fold induction	11.2

Some of these lines once more (set 2):
Change	normalised enrichment score
A3Y	0.342
V1E	0.0471
S10E	0.501
